Results collected from several papers.
Numbers after ± are the reported error.

Structure (SMILES) = CC(C)c1cnc(-c2cc(Cl)ccc2F)cc1Nc1ccncc1C(=O)NC(CO)CO; assay = item: Hypotension; test system = solid tumour patients; conditions = oral, dose not given, phase I monotherapy; quantity = treatment-related serious adverse events; result = 2.4%
Structure (SMILES) = N=C(N)NCCC[C@@H]1NC(=O)[C@H](Cc2c[nH]c3ccccc23)NC(=O)[C@@H](CC2CCCCC2)NC(=O)[C@@H]2CCCN2C(=O)[C@@H](NC(=O)CCc2ccccc2)CCCNC1=O; assay = two-compartment model; test system = C57BL/6J mouse, plasma brain; conditions = intravenous, 1 mg/kg single dose; quantity = K21; result = 6.4 h⁻¹
Structure (SMILES) = O=C(CCc1ccc(CNC(C(=O)O)C2CCCCC2)cn1)NO (stereo not drawn); test system = healthy male humans, plasma; conditions = oral, 50 mg, single dose, geometric mean; quantity = AUC(0-t); result = 289 ng·h/mL
Structure (SMILES) = CCOC(=O)c1[nH]c(C)c(/C=C/c2c(I)c(C)c3n2[B-](F)(F)[N+]2=C(C)C(I)=C(C)C2=C3c2cc(OC)cc(OC)c2)c1C; test system = DMSO; quantity = Stokes shift; result = 690 cm⁻¹
Structure (SMILES) = Cn1c(=O)oc2ccc(-c3ccc(CC(C#N)NC(=O)C4CNCCCO4)c(F)c3)cc21 (stereo not drawn); assay = item: white blood cells in urine; test system = human volunteers; conditions = 15 mg single dose, fasted; quantity = share of subjects with TEAE; result = 16.7%
Structure (SMILES) = O=C(O)CC[C@H](NC(=O)N[C@@H](CCC(=O)NCCCCCNC(=O)CN1CCNCCN(Cc2cccc(C(=O)[O-])n2)CC1)C(=O)[O-])C(=O)O.[64Cu+2]; assay = radio-HPLC; test system = mice, urine; conditions = 120 min; quantity = intact complex in urine; result = > 50%
Structure (SMILES) = COC(=O)C(c1ccccc1Cl)N1CCC(SCC(=O)c2cccc(OC)c2)C(=CC(=O)O)C1 (mixture of isomers); assay = HPLC-MS/MS; test system = feline EDTA plasma; conditions = 100 ng/mL, 72 h, -80 °C, storage stability; quantity = deviation from nominal; result = 7%
Structure (SMILES) = Cc1ccc(-c2ccc(-c3cc4sccc4o3)cn2)nc1; test system = acetonitrile; conditions = zinc-free ligand, added: quinine bisulfate reference; quantity = fluorescence quantum yield; result = 0.6
Structure (SMILES) = O=C(NCCCN(CCCCN(CCCNC(=O)c1cccc(=O)n1[O-])C(=O)c1cccc(=O)n1[O-])C(=O)c1cccc(=O)n1[O-])c1cccc(=O)n1[O-].[89Zr+4]; assay = radio-TLC; test system = PBS; conditions = 7 d, pH 7.4, 37 °C, added: Ga^3+ 10-fold excess; quantity = intact complex; result = 96.4 ± 0.6%
Structure (SMILES) = CN1C(=O)[C@@H](Cc2ccc(O)c(I)c2)NC(=O)CNC(=O)[C@H](Cc2ccc3ccccc3c2)NC(=O)[C@H](CCCNC(=N)N)NC(=O)[C@H]1CCCNC(=O)c1ccc(CNC(=O)CN2CCN(CC(=O)O)CCN(CC(=O)O)CC2)cc1 [fluorine-18 labelled]; test system = CB17 SCID mouse, female, Daudi lymphoma xenograft; conditions = intravenous, 300 kBq, 1 h; how to read = reference: tumour over blood; quantity = tissue ratio; result = 7 ± 1.2
Structure (SMILES) = CCc1cc(Nc2nc(-c3ccc(-n4cnc(C)c4)c(F)c3)cs2)c(C)cc1C; test system = human, plasma; conditions = oral, 100 mg once daily, day 14, multiple dose, geometric mean; quantity = apparent clearance (CL/F); result = 31200 mL/h
Structure (SMILES) = COc1ccc(-c2ccn(CC[C@](C)(C(=O)NO)S(C)(=O)=O)c(=O)c2)c(F)c1; test system = CF-1 mouse, female; conditions = subcutaneous, 75 mg/kg; quantity = Vss; result = 3.3 ± 0.55 L/kg
Structure (SMILES) = [11CH3]c1ccc2nc(C3CCC3)n(-c3ccc4[nH]ncc4c3)c2n1; test system = standard human adult, small intestine; quantity = absorbed radiation dose; result = 14.9 µSv/MBq
Structure (SMILES) = COC[C@@H](CC(C)C)NC(=O)c1ccc(C)c(CO)c1; assay = LC-MS; test system = Sprague-Dawley rats, pooled sexes, plasma; conditions = oral, 100 mg/kg of parent drug, 1 h; how to read = reference: total metabolite peak area; quantity = metabolite peak area; result = < 1%
Structure (SMILES) = CC12CC(c3ccc(S(C)(=O)=O)cc3)C3=C4CCC(=O)C=C4CCC3C1CCC2(O)C(F)(F)C(F)(F)F (stereo not drawn); assay = item: total radioactivity; test system = human, plasma; conditions = oral, 5 mg; quantity = tlast; result = 120 h
Structure (SMILES) = CCCC[C@@H]1NC(=O)[C@@H](NC(=O)[C@H](CCC(=O)O)NC(=O)CNC(=O)CN2CCN(CC(=O)O)CCN(CC(=O)O)CCN(CC(=O)O)CC2)CCCCNC(=O)C[C@@H](C(N)=O)NC(=O)[C@H](C(C)C)NC(=O)[C@@H]2CCCN2C(=O)[C@H](CCCNC(=N)N)NC(=O)CNC(=O)[C@H](Cc2c[nH]c3ccccc23)NC(=O)[C@H](CCCNC(=N)N)NC(=O)[C@@H](Cc2ccccc2)NC(=O)[C@H](Cc2c[nH]cn2)NC(=O)[C@H](CCC(=O)O)NC1=O [gallium-67 labelled]; test system = C57 mice, B16/F1 flank melanoma; conditions = intravenous, 2 h; how to read = reference: tumour over skin; quantity = tissue ratio; result = 51.7
Structure (SMILES) = CCCC[C@H](NC(=O)[C@H](CC(C)C)N(C)C(=O)CNC(=O)[C@@H](NC(=O)[C@H](Cc1ccccc1)NC(=O)[C@H](CCCCN)NC(=O)[C@@H](N)CC(=O)O)C(C)C)C(N)=O; test system = anaesthetised Sinclair minipig; conditions = sublingual, 5 mg/kg, lyophilised tablet; how to read = reference: baseline; quantity = mean arterial pressure change; result = -1.25 ± 3.65%
Structure (SMILES) = CCCC(CCC)NC(=O)c1ccc(OC)c(O)c1; assay = LC-MS; test system = Sprague-Dawley rats, pooled sexes, plasma; conditions = oral, 200 mg/kg of parent drug, 1 h; how to read = reference: total peak area; quantity = metabolite peak area; result = 24.3%
Structure (SMILES) = COc1cc2c(cc1OC)CN(CCCCn1ccc3cc(OCC[18F])ccc31)C2; test system = male CD-1 mouse, bone; conditions = intravenous, 280 kBq, 2 min; quantity = tracer uptake; result = 3.4 %ID/g
Structure (SMILES) = C=CC(=C)CC[C@]1(C)[C@H](C)CC[C@@]23C(=C[C@H](OC(=O)C(C)C)C[C@@H]12)[C@@H](OC(C)=O)O[C@H]3OC(C)=O; assay = haemolysis; conditions = 100 µM; quantity = haemolysis; result = 3.5%
Structure (SMILES) = Nc1ncnc2c1nc(-n1nnc3c1CCC1C(CO)C1CC3)n2C1CC(O)C(CO)O1 (mixture of isomers); assay = fluorescence lifetime; test system = methanol; quantity = fractional contribution τ3; result = 0.19%
Structure (SMILES) = C#CCOc1ccc(/C=C2\SC(=O)N(CC(=O)NCc3ccccc3)C2=O)cc1; assay = inverse Kirkwood-Buff integrals; test system = binary solvent mixture; conditions = 298.15 K, mole fraction x1 0.85; quantity = Kirkwood-Buff integral G2,3; result = -359 cm³/mol
Structure (SMILES) = Cc1ccc(OCC(=O)N(Cc2cccs2)c2ccn[nH]2)cc1; test system = male beagle dog, plasma; conditions = intravenous, 1 mg/kg, single dose; quantity = Vd; result = 0.593 L/kg
Structure (SMILES) = NCC(=O)NCC(=O)NCC(=O)NCC(=O)NCC(=O)NCC(=O)NCCCC[C@H](NC(=O)[C@@H]1CCCN1C(=O)[C@@H]1CSSCCC(=O)N[C@@H](Cc2ccc(O)cc2)C(=O)N[C@@H](Cc2ccccc2)C(=O)N[C@@H](CCCC(N)=O)C(=O)N[C@@H](CC(N)=O)C(=O)N1)C(=O)NCC(N)=O; test system = male Sprague Dawley rats; conditions = sc, single dose; quantity = LOAEL (paleness, lethargy); result = 0.38 mg/kg
Structure (SMILES) = CCCCCCCCCCCCCCCC(=O)N[C@@H](CCCCN)C(=O)N[C@@H](CCCCN)C(=O)N[C@@H](CO)C(=O)N[C@@H](CCCNC(=N)N)C(=O)N[C@@H](C)C(=O)N[C@@H](CC(C)C)C(=O)N[C@@H](Cc1ccccc1)C(N)=O; test system = cynomolgus monkey, male; conditions = 3 mg/kg, day 1; quantity = activated partial thromboplastin time; result = 30.5 ± 1.1 s
Structure (SMILES) = O=C([O-])CN1CCN(CC(=O)[O-])CCN(CC(=O)NCC2CCC(C(=O)NC(Cc3ccc4ccccc4c3)C(=O)NCCCCC(NC(=O)NC(CCC(=O)O)C(=O)O)C(=O)O)CC2)CCN(CC(=O)[O-])CC1.[44Sc+3] (stereo not drawn); assay = transmetallation stability; conditions = 0.5 h, 37 °C, added: Ca2+ 10 mM; quantity = intact complex; result = 98%
Structure (SMILES) = C=CC(=O)Nc1cc(Nc2nccc(-c3cn(C4CC4)c4ccccc34)n2)c(OC)cc1NC; assay = radio-HPLC; test system = human male, urine; conditions = oral, 110 mg, 0 to 96 h, sample holds 4.16% dose; how to read = reference: sample radioactivity; quantity = share of radioactivity; result = 1.7%
Structure (SMILES) = CC[C@@H](C)N([11CH3])C(=O)c1nc(-c2ccc(Cl)cc2)c2ccccc2n1; test system = rhesus monkey male, plasma; conditions = intravenous, TSPO preblock; quantity = time to 50% parent radioligand in plasma; result = 13.9 min
Structure (SMILES) = C=C(C)C(=O)Nc1ccc(-c2c(-c3ccc(Oc4nccc(C)n4)cc3)c3c(N)ncnc3n2C)cc1; test system = cynomolgus monkey, plasma; conditions = oral; quantity = bioavailability; result = 19%
Structure (SMILES) = COC(=O)c1ccc2c(c1)NC(=O)/C2=C(\Nc1ccc2c(c1)CCN2C(=O)CN1CCOCC1)c1ccccc1; test system = Sprague-Dawley rat, whole blood; conditions = 1 µM, 15 min, 37 °C; quantity = blood-to-plasma ratio; result = 1.27
Structure (SMILES) = COCCOCCOCCOCCC(=O)NCc1cc(CNC(=O)CCOCCOCCOCCOC)cc(-c2cc3cc4nc(c(-c5ccc(CCC(=O)O)cc5)c5[nH]c(cc6nc(c(OC)c2[nH]3)CC6(C)C)cc5-c2cc(CNC(=O)CCOCCOCCOCCOC)cc(CNC(=O)CCOCCOCCOCCOC)c2)CC4(C)C)c1; test system = DMF; conditions = room temperature; quantity = Qy emission maximum; result = 731 nm
Structure (SMILES) = CC(C)(O)c1ncc([S@](N)(=O)=NC(=O)Nc2c3c(cc4c2CCC4)CCC3)s1; test system = healthy human volunteers, plasma; conditions = oral, 200 mg once daily, day 14, spray-dried dispersion; quantity = Tmax; result = 2 h
Structure (SMILES) = CC(=O)N[C@@H](CCCCN)C(=O)NCCCCCC(=O)N[C@H](C(=O)N[C@@H](CO)C(=O)N[C@@H](Cc1ccccc1)C(=O)N[C@]1(C)CCCCCCC=CCCC[C@@](C)(C(=O)N[C@@H](CCC(=O)O)C(=O)N[C@@H](CC(N)=O)C(=O)N[C@@H](Cc2ccccc2)C(N)=O)NC(=O)[C@H](CC(C)C)NC(=O)[C@H](CC(C)C)NC(=O)[C@H](C)NC(=O)[C@H](Cc2c[nH]c3ccccc23)NC(=O)[C@H](Cc2ccc(O)cc2)NC(=O)[C@H](CCC(=O)O)NC1=O)[C@@H](C)O; assay = RP-HPLC C12; conditions = 35 min gradient 5–95% acetonitrile; how to read = higher = more hydrophobic; quantity = adjusted retention time; result = 20 min
Structure (SMILES) = CSCC(NC(=O)c1cc(Cl)ccc1Cl)C(=O)NC(CC(C)C)B(O)O (stereo not drawn); test system = Sprague-Dawley rat, both sexes; conditions = oral, 0.30 mg/kg of prodrug, 96 h; how to read = reference: dose; quantity = cumulative faecal excretion; result = 2.03%
Structure (SMILES) = COc1cc(OC)cc(C2=C3C(C)=C(I)C(C)=[N+]3[B-](F)(F)n3c(/C=C/c4cccs4)c(I)c(C)c32)c1; test system = dichloromethane; quantity = Stokes shift; result = 301 cm⁻¹
Structure (SMILES) = COc1c(Cl)ccc(Cl)c1C(=O)OC[C@H]1OC(O)[C@H](O)[C@@H]1O (stereo partly drawn); assay = HPLC; test system = water; conditions = 7 days; quantity = dicamba formed; result = 2.8%
Structure (SMILES) = C[C@H](NC(=O)COC(=O)[C@H](C)NC(=O)CO)C(=O)O; test system = water; conditions = pH 8, 50 °C; quantity = depolymerization half-life; result = 36 s
Structure (SMILES) = NC[C@@H](C(=O)Nc1ccc(-c2cn[nH]c2)cc1)c1ccccc1; assay = OECD 405 eye irritation; test system = New Zealand White rabbit, eye; conditions = topical, 0.1%, 96 h (day 5); how to read = direction not given; quantity = total eye irritation score; result = 0
Structure (SMILES) = C=CC(=O)Nc1cc(Nc2nccc(-n3ccc4nc(OC)ccc43)n2)c(OC)cc1N(C)CCN(C)C; test system = BALB/c nude mouse, H1975 intracranial tumour, tumour-free brain; conditions = oral, 60 mg/kg, 1 h; quantity = concentration; result = 927 ng/g
Structure (SMILES) = CCOc1ccc2c(c1)C(C)=CC(C)(C)N2c1cc(OCC)cc2c1NC(C)(C)C=C2C; assay = LC-MS/MS; test system = laying hens, muscle; conditions = oral, 50 mg/kg feed of ethoxyquin, 56 days; quantity = residue concentration; result = 0.3 ± 0.7 ng/g
Structure (SMILES) = Nc1nccc(-c2cn(C3CC3)c3ccccc23)n1; assay = LC-RAM/HRMS; test system = human male, plasma; conditions = oral, 110 mg, 4 h; how to read = reference: total radioactivity; quantity = share of radioactivity; result = 10%
Structure (SMILES) = CC(C)CCC(CCN)C(=O)N[C@H](C(=O)N[C@@H](CN)C(=O)N[C@H]1CCNC(=O)[C@H]([C@@H](C)O)NC(=O)[C@H](CCN)NC(=O)[C@H](CCN)NC(=O)[C@H](CC(C)C)NC(=O)[C@@H](Cc2ccccc2)NC(=O)[C@H](CCN)NC1=O)[C@@H](C)O (stereo partly drawn); test system = CD-1 mouse male, kidney; conditions = subcutaneous, 17.2 mg/kg, 4 h; quantity = tissue concentration; result = 331000 ng/g

Repeated from above:
Structure (SMILES) = C=C(C)C(=O)Nc1ccc(-c2c(-c3ccc(Oc4nccc(C)n4)cc3)c3c(N)ncnc3n2C)cc1; test system = cynomolgus monkey, plasma; conditions = oral; quantity = bioavailability; result = 19%
Structure (SMILES) = CSCC(NC(=O)c1cc(Cl)ccc1Cl)C(=O)NC(CC(C)C)B(O)O (stereo not drawn); test system = Sprague-Dawley rat, both sexes; conditions = oral, 0.30 mg/kg of prodrug, 96 h; how to read = reference: dose; quantity = cumulative faecal excretion; result = 2.03%
